Measured values from different studies.
Numbered parts are unrelated; each lists some results of a single study. Substitutions count along the parent as printed.

Set 1
Target: Ras GTPase-activating protein-binding protein 1, full length (G3BP1, Homo sapiens, UniProt Q13283)
Chain of UniProt Q13283 (whole entry, looked up): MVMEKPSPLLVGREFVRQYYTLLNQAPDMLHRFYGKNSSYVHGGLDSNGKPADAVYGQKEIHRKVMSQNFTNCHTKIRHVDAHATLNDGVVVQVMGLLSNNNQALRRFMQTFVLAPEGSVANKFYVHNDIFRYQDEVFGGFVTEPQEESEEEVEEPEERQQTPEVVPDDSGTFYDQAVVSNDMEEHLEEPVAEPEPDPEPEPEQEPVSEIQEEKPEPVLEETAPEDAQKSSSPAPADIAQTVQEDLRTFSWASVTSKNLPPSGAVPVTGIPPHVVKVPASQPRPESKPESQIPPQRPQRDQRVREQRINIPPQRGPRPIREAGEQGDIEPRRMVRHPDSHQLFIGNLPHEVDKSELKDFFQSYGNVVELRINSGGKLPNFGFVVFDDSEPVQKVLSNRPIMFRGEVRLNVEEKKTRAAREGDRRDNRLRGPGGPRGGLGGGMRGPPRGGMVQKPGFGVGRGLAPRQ
Technique: RNA Bind-n-Seq
Molecule type: RNA
Matrix: in vitro
Concentration: 200 nM
Notes: whole 134-nt RNA, ends assumed
With: 150 mM LiCl
Reference: input library
Reading: higher = stronger binding
All molecules: 7-deaza-guanosine replaces G
| Strand | log2 enrichment |
| --- | --- |
| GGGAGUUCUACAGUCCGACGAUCGUCCUGUGCUACACAUCGUAUGUACCGAAUCGGGAAAAAAAGGGUUUUUUUGGGAGGGAAAGUAUUAUGUUACGCCGUUCGGAUCUGCACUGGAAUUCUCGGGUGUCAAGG | -1.36 |
| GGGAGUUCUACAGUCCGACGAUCUCCUCAAGUCCUGUGCUACACAUCGUAUGUACCGAAUCGGGCGGCGGGCGGGAAAGUAUUAUGUUACGCCGUUCGGAUCUGCACUUCCAGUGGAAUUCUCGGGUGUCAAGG | 1.05 |
| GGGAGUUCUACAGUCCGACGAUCAGUCCUGUGCUACACAUCGUAUGUACCGAAUCGGGGAAAAAGGGGUGGGGUUUGGGGAAAGUAUUAUGUUACGCCGUUCGGAUCUGCACUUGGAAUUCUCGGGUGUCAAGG | -0.768 |
| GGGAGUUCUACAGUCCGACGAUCUCCUGUGCUACACAUCGUAUGUACCGAAUCGGGGAGGGGAAAAAGGGGUUUUUUUGGGGAAAGUAUUAUGUUACGCCGUUCGGAUCUGCAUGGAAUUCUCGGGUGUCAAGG | 0.894 |
| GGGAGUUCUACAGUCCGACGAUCUAACUUUAGAGGAGGAUAUGAUGGAUAUGGCAGUGGACGUGGAUUUGGGGAUGGCUAUAAUGGGUAUGGAGGAGGACCUGGAGGUGGCAAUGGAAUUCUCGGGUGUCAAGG | 0.171 |
| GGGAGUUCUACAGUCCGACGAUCUCCCUGUCCAAGCUGAGCGCCCUCAACGAGAGCCUUGCUCAGGACAAGUUGGAUCUGAACUGCCUUGUCACCCAGGUACACUGUGCACCUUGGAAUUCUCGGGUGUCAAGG | -0.218 |
| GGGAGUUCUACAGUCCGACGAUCAAGUCCUGUGCUACACAUCGUAUGUACCGAAUCGGGGAAAGGGGUGGGGUUUGGGGAAAGUAUUAUGUUACGCCGUUCGGAUCUGCACUUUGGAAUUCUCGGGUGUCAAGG | -0.522 |
| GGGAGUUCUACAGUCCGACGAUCUUUGUAGAGCAGCCCGACGGCCAUGGAGGCUGAAGAGACGAUGGAAUGCCUUCAGGAGUUCCCUGAACAUCAUAAAAUGAUCCUCGACCGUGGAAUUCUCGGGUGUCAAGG | -1.44 |
| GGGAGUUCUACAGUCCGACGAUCCCUGUGCUACACAUCGUAUGUACCGAAUCGGGUUUUUUUGGGAAAAAGGGAAAAAAAGGGAAAGUAUUAUGUUACGCCGUUCGGAUCUGCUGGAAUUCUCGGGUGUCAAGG | -1.13 |
| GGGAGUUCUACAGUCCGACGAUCGAUUCCCUCCACAUGCUGCACGCGCAUCUCGCCCCCAGGGGCACUGCCUGGAAGAUUCAGGAGCCUGGGCGGCCUUCGCUUACUCUCACCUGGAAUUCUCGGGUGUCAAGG | 2.22 |
| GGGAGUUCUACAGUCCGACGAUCUCCUGUGCUACACAUCGUAUGUACCGAAUCGGGAAAAAGGGUUUUUUUGGGUUUUUGGGAAAGUAUUAUGUUACGCCGUUCGGAUCUGCAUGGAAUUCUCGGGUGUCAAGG | -2.05 |

Set 2
Target: CCNB2, cyclin fold, Cln2 fusion (human)
Technique: yeast growth competition, sequencing
Matrix: yeast
Notes: strong parent motif
Reference: not given
Reading: higher = stronger binding
Starting sequence: MICAL3 docking peptide (human); LQLRRQLSFSEDS; partner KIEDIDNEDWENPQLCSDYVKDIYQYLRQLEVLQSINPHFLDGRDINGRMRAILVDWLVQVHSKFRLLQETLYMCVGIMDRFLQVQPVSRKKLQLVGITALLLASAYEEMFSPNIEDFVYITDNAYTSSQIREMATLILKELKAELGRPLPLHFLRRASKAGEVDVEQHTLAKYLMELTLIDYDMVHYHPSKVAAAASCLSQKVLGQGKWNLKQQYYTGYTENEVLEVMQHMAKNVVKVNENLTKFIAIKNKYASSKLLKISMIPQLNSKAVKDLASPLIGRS
| Change | normalised enrichment score |
| --- | --- |
| R4T | 0.166 |
| L7W | 0.534 |
| D12W | 1.96 |
| L3K | -0.0704 |
| E11G | 2.08 |
| R4I | 1.37 |
| Q2R | 3.06 |
| F9D | -0.507 |
| Q2Y | 2.49 |
| Q2G | 3.32 |
| E11A | 2.07 |
| R4S | 1.6 |
| L3S | 0.463 |

Set 3
Target: Interferon regulatory factor 7, full length, phosphomimetic (IRF7, Homo sapiens, UniProt Q92985, residues 1-503, S101K/S471D/S472D/S475D/S476D/S477D/S483D/S484D/S487D)
Technique: protein-binding microarray
Molecule type: double-stranded DNA, one strand shown
Matrix: in vitro
Concentration: 250 nM
Notes: 60-bp whole probe
With: salmon DNA 0.4 mg/ml
Reference: random background probes
Reading: higher = stronger binding
Shared flanks, not repeated: GCCTAGCAC … GTCTTGATTCGCTTGACGCTGCTG
Target sequence (chain): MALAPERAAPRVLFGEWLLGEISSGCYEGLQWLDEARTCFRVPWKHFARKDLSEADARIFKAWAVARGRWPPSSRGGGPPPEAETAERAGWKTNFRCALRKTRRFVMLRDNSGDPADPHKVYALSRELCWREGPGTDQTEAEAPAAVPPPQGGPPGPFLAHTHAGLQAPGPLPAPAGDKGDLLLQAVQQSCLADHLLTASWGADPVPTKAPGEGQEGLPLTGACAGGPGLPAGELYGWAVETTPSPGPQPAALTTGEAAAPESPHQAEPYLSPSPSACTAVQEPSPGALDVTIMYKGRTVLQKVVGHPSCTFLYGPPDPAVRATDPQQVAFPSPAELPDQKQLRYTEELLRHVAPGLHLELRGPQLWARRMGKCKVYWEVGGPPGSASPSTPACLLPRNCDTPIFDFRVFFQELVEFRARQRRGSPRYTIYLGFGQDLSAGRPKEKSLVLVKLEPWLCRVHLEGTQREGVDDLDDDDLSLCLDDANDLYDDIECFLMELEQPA
| Strand | log fluorescence [z-score] |
| --- | --- |
| TTAGATATCAGCCTGGATTAGTGCTAG | -0.0206 |
| TTAGAACTGGACTATCGGTTAGTGCTA | -0.363 |
| CAACCTTTGTTTTTTTCTATGTGCTAG | 0.463 |
| TTAGATAGCGGGTATCGATTAGTGCTA | 0.0554 |
| ATGACTCCCTCTCTGGCCAAGTGCTAG | -0.0982 |
| GACGATTTCAGTCTCGAGAGGTGCTAG | 0.26 |
| GACGAAATCAGTATCGAGACGTGCTAG | 0.164 |
| CTGTTTCTGTGTCACAGAGGGTGCTAG | 3.33 |
| TCCCCTTCTACTCTCCTGCAGTGCTAG | 1.03 |
| TCAGTTTTACAATTTGCACTGTGCTAG | 0.396 |
| GAGGCAAGGAGGGAGAACAGGTGCTAG | -0.989 |
| TTAGGACTGGACTATCAGTTAGTGCTA | -0.554 |
| TCATATTCAGGTATATAACTGTGCTAG | 1.02 |
| GACGGTATTCTTTTCCTGACGTGCTAG | 0.598 |
| GACGGTCTCGTTTTCCTGACGTGCTAG | 6.96 |
| AACCATTTTGGTTTTCCTTAGTGCTAG | 0.9 |
| ATCATTTTCTCTGTTCTAGAGTGCTAG | 1.97 |
| TTGGAACTGAGTTTCGATTAGTGCTAG | 7.97 |
| TTAGGACTGGGGTTTCGGGTAGTGCTA | 2.67 |
| GACTGTTTCCTTCTCCTGACGTGCTAG | 1.82 |
| TTAGGACTGGGTATCGGATAGTGCTAG | 0.105 |
| GACGATCTCAGTCTCGAGAAGTGCTAG | -0.0608 |
| TTAGGACTGGGGACTGTGTTAGTGCTA | -0.639 |
| TTAGGACTGGACACTGGGTTTGTGCTA | -0.413 |
| ATAGGTATCGGGACTGGGTTAGTGCTA | 0.0143 |

Set 4
Target: Histone acetyltransferase KAT6A, both winged helices, GST fusion (KAT6A, Homo sapiens, UniProt Q92794, residues 1-181)
Technique: protein binding microarray
Molecule type: double-stranded DNA, one strand shown
Matrix: in vitro
Concentration: not given
Notes: 8-mer, flanks averaged, mean of 2 arrays, mostly near background
Reference: not given
Reading: higher = stronger binding
Target sequence (chain): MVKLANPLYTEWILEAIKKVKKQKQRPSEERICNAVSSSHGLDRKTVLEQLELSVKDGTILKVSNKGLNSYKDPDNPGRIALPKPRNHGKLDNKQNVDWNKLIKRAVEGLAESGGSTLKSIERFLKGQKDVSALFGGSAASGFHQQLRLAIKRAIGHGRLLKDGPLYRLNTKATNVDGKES
| Strand | E-score |
| --- | --- |
| CCAGTCGG | 0.0261 |
| GTACTTGA | -0.0324 |
| ATCATTCC | -0.0123 |
| ATTCCAGC | -0.0797 |
| CAAATTTC | -0.225 |
| ACGCCCAG | -0.0381 |
| ATCATCTG | -0.0501 |
| ACTCACGA | -0.128 |
| TCCGCAAA | 0.147 |
| CGAAAAAG | 0.127 |
| AGATCCGA | -0.012 |
| CTTGGCCA | -0.23 |
| AAACGAAT | -0.184 |
| AAAACAGA | 0.0539 |
| CTCTATGC | 0.0447 |
| CTTCATAC | -0.0536 |
| ATAATGTA | -0.138 |
| AAAGTTAC | -0.0779 |
| ACTTGGAA | -0.191 |
| ACGTGCTG | -0.116 |
| AGAATGAC | -0.0998 |
| GCAGGATA | -0.146 |
| CATACCGC | 0.276 |
| CGGCCAAC | 0.143 |
| ACATGGAA | -0.127 |

Set 5
Target: Sal-like protein 4, full length isoform B (SALL4, Homo sapiens, UniProt Q9UJQ4-2, residues 1-616)
Technique: universal PBM
Molecule type: double-stranded DNA, one strand shown
Matrix: in vitro
Concentration: not given
Notes: 8-mer, flanks averaged, mean of replicates
Reading: higher = stronger binding
Residues (chain): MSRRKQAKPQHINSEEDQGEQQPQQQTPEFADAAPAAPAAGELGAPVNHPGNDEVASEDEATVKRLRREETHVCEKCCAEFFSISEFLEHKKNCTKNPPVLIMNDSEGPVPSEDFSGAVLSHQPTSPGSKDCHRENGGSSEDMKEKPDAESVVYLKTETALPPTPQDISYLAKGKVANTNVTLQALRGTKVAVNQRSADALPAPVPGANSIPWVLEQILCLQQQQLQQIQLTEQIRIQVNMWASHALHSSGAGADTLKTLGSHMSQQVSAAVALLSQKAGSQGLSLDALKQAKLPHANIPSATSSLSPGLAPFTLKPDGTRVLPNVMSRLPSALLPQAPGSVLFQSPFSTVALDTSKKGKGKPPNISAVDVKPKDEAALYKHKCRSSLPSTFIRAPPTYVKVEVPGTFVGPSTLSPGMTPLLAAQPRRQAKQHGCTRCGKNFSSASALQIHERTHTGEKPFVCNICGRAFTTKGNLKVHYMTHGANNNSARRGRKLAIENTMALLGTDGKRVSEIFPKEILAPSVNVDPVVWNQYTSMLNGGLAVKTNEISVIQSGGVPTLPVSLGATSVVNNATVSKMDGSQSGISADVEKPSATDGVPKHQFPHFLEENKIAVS
| Strand | E-score |
| --- | --- |
| AGAGTGAA | 0.0592 |
| AAAGCAAG | 0.0467 |
| GCTTTGAC | -0.0556 |
| CCAACTAC | 0.0192 |
| AAAAAGAT | 0.219 |
| GATTACGC | 0.115 |
| ACTAAAGA | 0.00098 |
| ACTCAATG | 0.0542 |
| AAGTCAAG | -0.142 |
| ATGGAATC | 0.117 |
| GAAGAGGC | -0.0575 |
| ATCCTTAC | 0.124 |
| AAGCTTCG | -0.196 |
| CTTTCCGA | -0.0564 |
| AACCTCCC | -0.166 |
| CATTCGCG | -0.065 |
| AGTTCTAC | 0.0402 |
| ACACGGTC | -0.145 |
| CAATATAC | 0.292 |
| CGAATCTA | 0.049 |
| CGTACTAA | 0.159 |
| CGACTTTC | -0.0649 |
| CACAGACA | 0.178 |
| ACTCATGG | 0.0611 |
| AACATTGT | 0.269 |

Repeated from above (set 5):
| Strand | E-score |
| --- | --- |
| GATTACGC | 0.115 |
| ACTAAAGA | 0.00098 |
| ACTCAATG | 0.0542 |
| AAGTCAAG | -0.142 |
| ATGGAATC | 0.117 |
| GAAGAGGC | -0.0575 |
| ATCCTTAC | 0.124 |
| AAGCTTCG | -0.196 |
| CTTTCCGA | -0.0564 |
| AACCTCCC | -0.166 |
